Published values from different studies.
Every numbered part comes from another study and shows a few of its results, in no order. Changes are numbered by the printed parent chain.

Study 1 — method: RNA Bind-n-Seq; molecule type: RNA; sample: in vitro; tested at: 1 µM; notes: whole 134-nt RNA, ends assumed; with: 150 mM KCl; baseline: input library; reading: higher = stronger binding; endpoint: log2 enrichment
Target: Ras GTPase-activating protein-binding protein 1, C-terminal RGG region (G3BP1, Homo sapiens, UniProt Q13283)
UniProt Q13283, sequence (whole entry, looked up): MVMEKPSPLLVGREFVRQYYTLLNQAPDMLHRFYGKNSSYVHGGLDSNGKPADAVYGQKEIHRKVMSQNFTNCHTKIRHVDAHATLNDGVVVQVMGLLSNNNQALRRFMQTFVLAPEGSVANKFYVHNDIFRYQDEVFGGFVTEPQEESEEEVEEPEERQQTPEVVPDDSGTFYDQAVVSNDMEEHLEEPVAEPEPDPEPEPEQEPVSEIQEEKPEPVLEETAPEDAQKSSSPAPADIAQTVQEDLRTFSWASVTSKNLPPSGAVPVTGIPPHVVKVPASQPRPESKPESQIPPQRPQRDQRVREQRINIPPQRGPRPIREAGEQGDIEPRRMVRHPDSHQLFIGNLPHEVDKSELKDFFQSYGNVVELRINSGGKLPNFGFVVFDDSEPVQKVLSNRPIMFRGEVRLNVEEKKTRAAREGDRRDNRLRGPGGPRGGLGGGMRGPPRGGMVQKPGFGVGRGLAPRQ
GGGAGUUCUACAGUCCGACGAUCCCUGUGCUACACAUCGUAUGUACCGAAUCGGGCCCCCCCGGCCCCCCCGGGCCCCCCCGGAAAGUAUUAUGUUACGCCGUUCGGAUCUGCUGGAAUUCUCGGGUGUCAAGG: -1.02
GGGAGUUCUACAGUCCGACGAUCUCAAGUCCUGUGCUACACAUCGUAUGUACCGAAUCGGGUUUGGUUUGGGUUUGGAAAGUAUUAUGUUACGCCGUUCGGAUCUGCACUUCCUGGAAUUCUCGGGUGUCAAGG: -1.13
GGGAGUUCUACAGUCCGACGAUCCCUGUGCUACACAUCGUAUGUACCGAAUCGGGGAAAAAAGGGAAAAAAGGAAAAAAGGGGAAAGUAUUAUGUUACGCCGUUCGGAUCUGCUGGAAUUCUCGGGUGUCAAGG: -1.69
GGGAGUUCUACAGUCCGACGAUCCACAGACAACACGCACCCACACAGACACAGAGGGAAGGGGUUGGGAUGAGGACAGGGUGCACAGCAGGGCGGGGUAGGACCCCAGCCCCUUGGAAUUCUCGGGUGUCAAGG: -0.188
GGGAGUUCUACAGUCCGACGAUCUAACUUUUGAGGAGGAUCUGAUGGAUAUGGCAGUGGACGUGGAUUUGGGGAUGGCUAUAAUGGGUAUGGAGGAGGACCUGGAGGUGGCAAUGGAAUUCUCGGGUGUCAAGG: -1.03
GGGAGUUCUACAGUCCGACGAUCCUCAAGUCCUGUGCUACACAUCGUAUGUACCGAAUCGGUUUGGAGGAAAAAGGAAAGUAUUAUGUUACGCCGUUCGGAUCUGCACUUCCAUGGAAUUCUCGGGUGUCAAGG: -1.17
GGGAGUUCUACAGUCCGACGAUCCACAGACAACACGGACCCACACAGACACAGAGGGAAGGGGUUGGGAUGGGGACAGGGUGCACAGCAGGGCGGGGUAGGACCCCAGCCCCUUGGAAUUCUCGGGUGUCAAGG: -0.492
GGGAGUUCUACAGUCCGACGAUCUCCUGUGCUACACAUCGUAUGUACCGAAUCGGGGAAAGGGGAAAAAGGGGUUUUUGGGGAAAGUAUUAUGUUACGCCGUUCGGAUCUGCAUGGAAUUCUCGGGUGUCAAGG: 2.38
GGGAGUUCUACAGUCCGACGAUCUUCAUUCCUUGGAAGAAGCUGUACCAUCGAUACCUGAUGAAUGAAGAGCAAGCUGUCAGCAAAGUGGACGGCAUCCUGUCUAACUGUGGCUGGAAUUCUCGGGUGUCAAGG: -1.88
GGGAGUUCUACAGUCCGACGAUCUCCGCACACCCGGCCUGUCACCCUGCUUUCCCUGCCUCUACUUGACUUGGAAUUGGCUGAAGACUACACAGGAAUGCAUCGUUCCCACUCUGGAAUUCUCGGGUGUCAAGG: 0.668
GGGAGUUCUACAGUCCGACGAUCCAAGUCCUGUGCUACACAUCGUAUGUACCGAAUCGGGGUUUGGGGAGGGGAGGGGAAAGUAUUAUGUUACGCCGUUCGGAUCUGCACUUCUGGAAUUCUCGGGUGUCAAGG: 2.76
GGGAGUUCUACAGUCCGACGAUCUGGCCCUGGUGGCAUGCGGGGAGGAAGAGGUGGCCUCAUGGAUCGUGGUGGUCCCGUUGGAAUGUUCAGAGGUGGCCGUGGUGGAGACAGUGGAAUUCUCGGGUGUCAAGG: 2.07
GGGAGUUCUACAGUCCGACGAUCAAGUCCUGUGCUACACAUCGUAUGUACCGAAUCGGGGAAAGGGGUUUGGGGUGGGGAAAGUAUUAUGUUACGCCGUUCGGAUCUGCACUUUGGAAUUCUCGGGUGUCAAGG: 3.31
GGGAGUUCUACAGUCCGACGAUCUCCUGUGCUACACAUCGUAUGUACCGAAUCGGCCCCCCGGCCCCCCGGGGCCCCCCGGGGAAAGUAUUAUGUUACGCCGUUCGGAUCUGCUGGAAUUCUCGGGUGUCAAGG: -1.27

Study 2 — method: RNAcompete; molecule type: RNA; sample: in vitro; tested at: 20 nM; notes: 7-mer, probes averaged, single round; baseline: mean of 7-mers; reading: higher = stronger binding; endpoint: 7-mer Z-score
Target: PABPC1L2, full length, GST fusion (mouse, UniProt A0ABA7IW68)
Construct (chain): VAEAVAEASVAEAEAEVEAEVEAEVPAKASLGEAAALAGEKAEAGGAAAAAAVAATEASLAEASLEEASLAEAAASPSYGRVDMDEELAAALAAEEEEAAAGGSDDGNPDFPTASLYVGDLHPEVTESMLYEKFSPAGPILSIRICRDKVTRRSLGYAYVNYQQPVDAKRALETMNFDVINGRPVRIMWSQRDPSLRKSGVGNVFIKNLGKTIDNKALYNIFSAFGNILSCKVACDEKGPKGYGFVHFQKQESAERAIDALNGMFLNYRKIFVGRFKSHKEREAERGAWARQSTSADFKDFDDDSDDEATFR
GAACGUG: -0.0446
CUUCGGA: -0.269
UGGUGUG: -0.179
AUGCGUC: -0.353
GUCGGAA: -0.00289
GGACGCU: 0.00617
CCUAAUU: -0.345
CGUCAGG: -0.0301
UGUAUUG: -0.222
CCUAUCG: -0.28
CUAACCG: -0.246
GUAUAUU: -0.186
GAUUCUU: -0.318
UACAGGG: 0.14
CGGAUAG: -0.0373
CAGUGUC: -0.0699
AGGAACU: -0.0464
UUCCUGG: -0.311
UCAAAAU: 1.1
GUCGAGC: -0.184
UAUUUGA: -0.231
UCGUCUG: -0.45
GGCGUUU: -0.293
CUACUCU: -0.345
CAGCGUA: -0.159

Study 3 — method: DHFR PCA, deep sequencing; sample: yeast; with: (+)-ABA 0 µM; baseline: wild-type fitted maximum; reading: higher = stronger binding; endpoint: relative binding score
Target: ABI1, truncated, D143A, DHFR fusion (Arabidopsis thaliana)
Notes: methotrexate growth selection, single substitutions
Starting sequence: PYL1, truncated, DHFR fusion (Arabidopsis thaliana); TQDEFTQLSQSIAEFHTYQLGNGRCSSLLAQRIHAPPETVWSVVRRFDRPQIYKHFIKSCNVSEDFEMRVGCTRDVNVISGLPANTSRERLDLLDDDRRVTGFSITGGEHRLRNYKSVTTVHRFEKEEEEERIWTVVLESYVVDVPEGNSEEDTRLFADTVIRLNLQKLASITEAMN
V145A: -8.23%
S27Y: 5.11%
D92C: -8.69%
S59R: -2.45%
D159N: 3.56%
T86W: 62.7%
H34E: 36.7%
S26Y: 4.76%
E89S: 1.19%

Study 4 — method: protein-binding microarray; molecule type: double-stranded DNA, one strand shown; sample: in vitro; tested at: 940 nM top; notes: 60-bp whole probe; with: salmon DNA 0.4 mg/ml; baseline: random background probes; reading: higher = stronger binding; endpoint: fitted relative affinity; constant ends, left off below: GCCTAGCAC … GTCTTGATTCGCTTGACGCTGCTG
Target: Interferon regulatory factor 5, full length, phosphomimetic (IRF5, Homo sapiens, UniProt Q13568-2, residues 1-514, S451D/S453D/S456D/S462D)
GACGGTATCGGGACTGGGCACGTGCTA: 2.83 z-score
TGTCCTTTTCTTTACTGATGGTGCTAG: 1.61 z-score
TGATAAATCTTTGTTGGAGGGGTGCTA: 0.543 z-score
TTAGAACTGAGTCTCGATCAGTGCTAG: 2.17 z-score
TTAGATGTCGGGACTGGATTAGTGCTA: -0.179 z-score
GGCTTTTTAATGAATGAAGAGGTGCTA: -0.347 z-score
TTAGATTTCAGACTGAATTAGTGCTAG: -0.00207 z-score
TTACGTTTCGGTTTCGGTTAGTGCTAG: 11.9 z-score
GGGCATTTGGAAAATGAAAATGTGCTA: -0.398 z-score
GACGAACTGGGGTATCGGGACGTGCTA: 0.688 z-score
GAAGACTTTGGTTTGTACACGTGCTAG: -0.397 z-score
TCACTTTTCACTTTACAACTGTGCTAG: 2.08 z-score
GACGGACTGCGGACTGGGGACGTGCTA: -0.46 z-score
GACGATATCGGATATCGAGACGTGCTA: 0.0989 z-score
TGAGGACTGGGTTTCGGTTAGTGCTAG: 7.18 z-score
GAGGGACTGGGTCTCGGGACGTGCTAG: -0.393 z-score
TTAGGACTGGGTAACGGTTAGTGCTAG: -0.192 z-score
TTAGGTATCGACGATCGGTTAGTGCTA: 4.85 z-score
GACGGGTTCGGTCTCGGGACGTGCTAG: 0.716 z-score
TTAGGTAACGGGTTTCGGTTAGTGCTA: 5.45 z-score
TCATAAAATGGACACTGTACTGTGCTA: -0.0518 z-score
TTAGATATCAGTATCGATCAGTGCTAG: 4.38 z-score
GACTGACTGCTTATCCTGACGTGCTAG: -0.0331 z-score
GACGGTCTCCTTCTTCTGACGTGCTAG: 0.717 z-score
TCATTTCTCAAATGTTTTACTGTGCTA: 0.407 z-score

Study 5 — method: universal PBM; molecule type: double-stranded DNA, one strand shown; sample: in vitro; tested at: not given; reading: higher = stronger binding; endpoint: E-score
Target: Sal-like protein 4, full length isoform B (SALL4, Homo sapiens, UniProt Q9UJQ4-2, residues 1-616)
Notes: 8-mer, flanks averaged, mean of replicates
TGGGGCAA: -0.143
GTACATTA: 0.247
TAGCCCGA: -0.237
ATCAATAC: 0.269
AGCCAATG: 0.017
ACGTCCCG: -0.363
GCCTTAGA: -0.133
CGACCTTC: -0.0763
GCTTTTAC: 0.161
GCACTGAA: 0.0162
CGCCCCGC: -0.336
CAAACTGC: -0.129
AAAGTCAC: 0.144
CGAGCCAA: -0.148
CCTATGAC: 0.0402
CAAATAAA: 0.259
CACCCGAC: -0.257
GTTTATGA: 0.367
AACATTCT: 0.212
AGTACGGC: -0.134
CATCATAA: 0.341
AGTAGGCG: -0.157
CAAAGCAG: -0.0716
CCTTGCTC: -0.174
ATCTGTTC: -0.0139

Study 6 — target: CCNB1, cyclin fold, Cln2 fusion (human); method: yeast growth competition, sequencing; sample: yeast; notes: strong parent motif; baseline: not given; reading: higher = stronger binding; endpoint: normalised enrichment score
Starting sequence: E2F1 docking peptide (human); PPVKRRLDFETDH; partner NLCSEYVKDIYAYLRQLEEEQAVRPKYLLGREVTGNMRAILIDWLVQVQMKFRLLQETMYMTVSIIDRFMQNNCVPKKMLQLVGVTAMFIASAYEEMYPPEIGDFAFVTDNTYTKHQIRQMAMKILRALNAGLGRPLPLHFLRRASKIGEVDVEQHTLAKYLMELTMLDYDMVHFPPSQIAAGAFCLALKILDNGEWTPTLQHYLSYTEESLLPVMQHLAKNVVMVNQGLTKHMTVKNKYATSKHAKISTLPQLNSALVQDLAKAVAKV
T11D: 5.63
E10H: 4.34
T11H: 5.24
V3H: 0.712
R5L: 2.49
D8Y: 4.82
E10Q: 4.32
F9G: 0.165
L7A: 0.342
E10G: 5.23
D12V: 5.12
V3G: 0.465
K4L: 2.3
T11R: 4.6
V3K: 0.748
R5C: 3.2
F9T: -0.0259
D8A: 4
T11Y: 5.06
L7Y: 0.192
P2W: 3.33
D12I: 4.96
E10W: 3.61
T11E: 5.19
P2N: 5.11

Other studies, line by line
FOXRED1 (Homo sapiens, UniProt Q96CU9) — cross-linked residues (DMAC2 (Homo sapiens, UniProt Q9NW81); cross-linking MS; cell fractions; with: DSSO): K184 to K148
PhoQ, residues 284 288 289 292 302 303 ALSMDL — fold induction (PhoP, residues 12 14 15 18 19 IQFRS (Escherichia coli, UniProt P23836); Sort-seq, refers to: YFP reporter; E. coli; PhoQ-PhoP variant library, with: 10 µM Mg2+; baseline: high Mg2+ state, higher = stronger signaling): 6.75
CHN2 (Homo sapiens, UniProt P52757) — cross-linked residues (DHX38 (Homo sapiens, UniProt Q92620); cross-linking MS; cell fractions; with: DSSO): K307 to K1210
FYTTD1 (Homo sapiens, UniProt Q96QD9) — interaction screen (CHTOP (Homo sapiens, UniProt Q9Y3Y2); cross-linking MS; hits only): cross-linked
SNW1 (Homo sapiens, UniProt Q13573) — interaction screen (SNRNP40 (Homo sapiens, UniProt Q96DI7); cross-linking MS; hits only): cross-linked
